Published values pooled from the literature.
Lines come from different studies, so protocols differ. ± marks the error that the study gave.
Route: intravenous

The tissue uptake of `Cc1cc(C)n(CCN(CCN)CCCCCCNC(=O)[C@@H](N)Cc2c[nH]cn2)n1.[99Tc+].[C-]#[O+].[C-]#[O+].[C-]#[O+]` is reported as 0.1 ± 0.01 %IA/g (BALB/c nude mice, A549 xenograft, muscle; 4 h).
`O=C([O-])CN1CCN(CC(=O)[O-])CCN(CC(=O)NC[C@H]2CC[C@H](C(=O)N[C@H](Cc3cnc4ccccc4c3)C(=O)NCCCC[C@H](NC(=O)N[C@@H](CCC(=O)O)C(=O)O)C(=O)O)CC2)CCN(CC(=O)[O-])CC1.[64Cu+2]` gave a tissue uptake of 18.6 %ID/g (ex vivo gamma counting; 22Rv1 tumour-bearing mice, lung; 0.74 MBq, 6 h post-injection).
For `CC(C)C[C@H](NC(=O)[C@@H](CCCCNC(=O)[C@@H](Cc1ccccc1)NC(=O)CCCCCCCNC(=O)CN1CCN(CC(=O)O)CCN(CC(=O)O)CCN(CC(=O)O)CC1)NC(=O)[C@H](Cc1ccc(O)cc1)NC(=O)[C@H](CO)NC(=O)[C@H](Cc1c[nH]c2ccccc12)NC(=O)[C@H](Cc1c[nH]cn1)NC(=O)[C@@H]1CCC(=O)N1)C(=O)N[C@@H](CCCNC(=N)N)C(=O)N1CCC[C@H]1C(=O)NCC(N)=O` [indium-111 labelled], the tissue uptake was 6.14 ± 0.32 %ID/g (male athymic nude mice, DU-145 prostate cancer xenograft, kidney; 0.037 MBq, 4 h).
With `O=C(NCC1OC2CCC=CCCC2O1)c1ccc([18F])nc1` (centres unmarked) the tissue uptake was 2.2 ± 0.4 %ID/g (healthy female BALB/c nude mice, brain; 7.4 MBq per mouse, 2 min).
`COc1ccc(Nc2nc(Nc3ccc(OCCOCC[18F])cc3)ncc2Br)cc1` gave a tissue uptake of 2.84 ± 0.34 %ID/g (ICR mice, S180 tumour-bearing, lung; 370 kBq, 30 min).
The tissue uptake of `CCCC[C@H](NC(=O)COCCOCCNC(=O)CN1CCN(CC(=O)O)CCN(CC(=O)O)CC1)C(=O)N[C@H]1CC(=O)NCCCC[C@@H](C(N)=O)NC(=O)[C@H](Cc2c[nH]c3ccccc23)NC(=O)[C@H](CCCNC(=N)N)NC(=O)[C@@H](Cc2ccccc2)NC(=O)[C@H](Cc2c[nH]cn2)NC1=O` [fluorine-18 labelled] is reported as 4.51 ± 0.68 %ID/g (C57 mice B16-F10 melanoma, bone; 0.37 MBq, 1 h).
The tissue uptake of `CCCC[C@H](NC(=O)CNC(=O)CNC(=O)[C@H](CCCCNC(=O)[C@H](CC(=O)O)NC(=O)C(C)c1ccc(CC(C)C)cc1)NC(=O)CN1CCN(CC(=O)O)CCN(CC(=O)O)CCN(CC(=O)O)CC1)C(=O)N[C@H]1CC(=O)NCCCC[C@@H](C(N)=O)NC(=O)[C@H](Cc2c[nH]c3ccccc23)NC(=O)[C@H](CCCNC(=N)N)NC(=O)[C@@H](Cc2ccccc2)NC(=O)[C@H](Cc2c[nH]cn2)NC1=O` (some centres unmarked) [lutetium-177 labelled] is reported as 0.55 ± 0.11 %ID/g (C57 mice, tumour-bearing, blood; 0.037 MBq, 4 h).
`COc1ccc(Nc2nc(Nc3ccc(OCCOCCOCC[18F])cc3)ncc2Br)cc1` gave a tissue uptake of 2.87 ± 0.24 %ID/g (ICR mice, S180 tumour-bearing, spleen; 370 kBq, 5 min).

Excerpt of the above:
`COc1ccc(Nc2nc(Nc3ccc(OCCOCC[18F])cc3)ncc2Br)cc1` gave a tissue uptake of 2.84 ± 0.34 %ID/g (ICR mice, S180 tumour-bearing, lung; 370 kBq, 30 min).
